Measured values collected from several papers.
Parts stem from different laboratories: compare values within a part only.
Chain of UniProt Q9Y5S2 (whole entry, looked up): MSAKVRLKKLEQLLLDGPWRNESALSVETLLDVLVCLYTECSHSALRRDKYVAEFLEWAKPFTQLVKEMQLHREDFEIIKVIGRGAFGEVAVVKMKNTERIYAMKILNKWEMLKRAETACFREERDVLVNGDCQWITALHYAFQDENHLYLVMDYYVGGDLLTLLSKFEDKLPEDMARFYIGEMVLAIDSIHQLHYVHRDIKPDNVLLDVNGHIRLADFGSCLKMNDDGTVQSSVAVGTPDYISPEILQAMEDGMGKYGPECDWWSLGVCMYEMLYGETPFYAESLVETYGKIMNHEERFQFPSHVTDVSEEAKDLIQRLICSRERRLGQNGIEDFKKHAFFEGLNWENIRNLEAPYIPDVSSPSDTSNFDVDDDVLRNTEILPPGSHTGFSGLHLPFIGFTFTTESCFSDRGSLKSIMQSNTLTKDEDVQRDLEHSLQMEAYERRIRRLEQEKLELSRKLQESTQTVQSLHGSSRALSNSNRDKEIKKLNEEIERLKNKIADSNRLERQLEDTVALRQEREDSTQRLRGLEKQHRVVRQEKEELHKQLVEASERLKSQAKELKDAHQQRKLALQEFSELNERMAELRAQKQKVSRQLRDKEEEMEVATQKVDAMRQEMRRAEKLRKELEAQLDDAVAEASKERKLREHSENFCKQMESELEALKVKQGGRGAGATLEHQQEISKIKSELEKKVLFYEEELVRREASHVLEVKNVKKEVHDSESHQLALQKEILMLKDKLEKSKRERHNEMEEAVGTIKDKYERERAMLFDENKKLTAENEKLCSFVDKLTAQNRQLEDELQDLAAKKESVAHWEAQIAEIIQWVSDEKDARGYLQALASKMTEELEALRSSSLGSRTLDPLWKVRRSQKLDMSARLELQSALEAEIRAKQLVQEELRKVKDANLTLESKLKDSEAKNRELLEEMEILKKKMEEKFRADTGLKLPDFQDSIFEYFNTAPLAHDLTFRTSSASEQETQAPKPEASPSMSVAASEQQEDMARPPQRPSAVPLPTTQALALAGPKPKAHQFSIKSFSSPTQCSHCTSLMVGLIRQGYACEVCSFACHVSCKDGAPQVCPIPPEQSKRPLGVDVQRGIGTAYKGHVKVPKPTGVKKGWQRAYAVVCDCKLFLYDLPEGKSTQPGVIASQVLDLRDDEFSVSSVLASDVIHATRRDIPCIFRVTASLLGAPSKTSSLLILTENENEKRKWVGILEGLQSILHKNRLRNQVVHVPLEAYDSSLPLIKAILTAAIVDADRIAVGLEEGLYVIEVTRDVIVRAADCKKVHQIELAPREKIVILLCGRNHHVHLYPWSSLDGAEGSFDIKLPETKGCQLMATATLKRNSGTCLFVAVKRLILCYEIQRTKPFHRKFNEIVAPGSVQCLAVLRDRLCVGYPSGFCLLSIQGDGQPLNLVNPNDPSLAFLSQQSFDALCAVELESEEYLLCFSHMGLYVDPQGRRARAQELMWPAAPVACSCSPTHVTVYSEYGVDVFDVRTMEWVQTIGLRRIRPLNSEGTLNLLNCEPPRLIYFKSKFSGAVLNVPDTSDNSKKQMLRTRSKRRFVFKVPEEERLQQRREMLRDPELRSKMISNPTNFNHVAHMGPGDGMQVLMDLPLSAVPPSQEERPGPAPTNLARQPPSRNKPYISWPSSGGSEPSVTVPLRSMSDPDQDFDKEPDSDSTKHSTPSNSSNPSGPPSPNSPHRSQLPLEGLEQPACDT

Study 1 — technique: aptamer microarray, sandwich; molecule type: DNA with 2'F-ANA; medium: in vitro; tested at: 200 nM; added: Cy3 exosite-II aptamer, 400 nM; direction: higher = stronger binding; sequence: GGTTGGTGTGGTTGG
Target: Prothrombin, mature alpha-thrombin (F2, Homo sapiens, UniProt P00734)
Setting: whole 15-mer aptamer, many near background
| Modification | mean fluorescence intensity |
| --- | --- |
| 2'F-ANA at 1 2 4 5 6 8 9 15 | 64.1 a.u. |
| 2'F-ANA at 1 4 6 7 10 12 13 15 | 53 a.u. |
| 2'F-ANA at 4 6 7 10 11 13 15 | 63.2 a.u. |
| 2'F-ANA at 2 6 7 9 10 12 14 15 | 75.2 a.u. |
| 2'F-ANA at 1 2 3 4 6 7 9 10 12 14 15 | 50.5 a.u. |
| 2'F-ANA at 1 3 7 8 10 11 12 14 15 | 61.1 a.u. |
| 2'F-ANA at 8 10 15 | 199 a.u. |
| 2'F-ANA at 1 2 4 5 7 10 12 13 14 15 | 51.3 a.u. |

Study 2 — technique: RNA Bind-n-Seq; molecule type: RNA; medium: in vitro; tested at: 1 µM; setting: whole 134-nt RNA, ends assumed; added: 150 mM KCl; reference: input library; direction: higher = stronger binding
Target: Ras GTPase-activating protein-binding protein 1, RRM domain (G3BP1, Homo sapiens, UniProt Q13283)
Chain of UniProt Q13283 (whole entry, looked up): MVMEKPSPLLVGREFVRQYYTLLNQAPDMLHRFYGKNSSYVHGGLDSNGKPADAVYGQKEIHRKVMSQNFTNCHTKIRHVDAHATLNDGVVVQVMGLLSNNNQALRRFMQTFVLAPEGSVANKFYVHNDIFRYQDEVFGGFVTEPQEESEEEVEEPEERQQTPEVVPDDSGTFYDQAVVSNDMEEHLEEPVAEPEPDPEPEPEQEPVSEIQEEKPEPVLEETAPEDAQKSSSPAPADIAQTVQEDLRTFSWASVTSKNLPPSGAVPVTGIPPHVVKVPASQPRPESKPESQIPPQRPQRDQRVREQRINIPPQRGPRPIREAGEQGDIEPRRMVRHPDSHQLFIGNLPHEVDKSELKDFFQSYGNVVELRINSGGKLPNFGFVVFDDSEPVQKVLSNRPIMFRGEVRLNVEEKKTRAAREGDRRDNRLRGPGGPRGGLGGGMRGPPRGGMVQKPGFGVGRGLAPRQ
Shared flanks, not repeated: GGGAGUUCUACAGUCCGACGAUC … UGGAAUUCUCGGGUGUCAAGG
| Sequence | log2 enrichment |
| --- | --- |
| CCUGUGCUACACAUCGUAUGUACCGAAUCGGGGCCCCCCGGGCCCCCCGGCCCCCCGGGGAAAGUAUUAUGUUACGCCGUUCGGAUCUGC | -0.686 |
| GUCCUGUGCUACACAUCGUAUGUACCGAAUCGGGAAAAAGGGGAAAAAGGGGAAAAAGGAAAGUAUUAUGUUACGCCGUUCGGAUCUGCA | -0.0563 |
| CACAGACAACACGCACCCACACAGACACAGAGGGAAGGGGUUGGGAUGGGGACAGGUUGCACAGCAGGGCGGGGUAGGACCCCAGCCCCU | -0.0345 |
| UGGCAGCGGCCAUGGACCGCUUCGUUUGGACCAGCGGCCUCCUGGAGAUCAACGAGACCCUGGUGAUCCAGCAGCGCGGGGUGCGAAUCU | -0.465 |
| AGUCCUGUGCUACACAUCGUAUGUACCGAAUCGGGGCCCCGGGGCCCCGGGGCCCCGGAAAGUAUUAUGUUACGCCGUUCGGAUCUGCAC | -2.02 |
| AGUCCUGUGCUACACAUCGUAUGUACCGAAUCAAAUUUAAAUUUUUAAAUUUUUAAAAAAGUAUUAUGUUACGCCGUUCGGAUCUGCACU | -0.828 |
| UCAAGUCCUGUGCUACACAUCGUAUGUACCGAAUCGGGAGGGAAAGGGAAAGGGAAAGUAUUAUGUUACGCCGUUCGGAUCUGCACUUCC | 0.749 |
| CGCAGAAGUCGCGUGUCUAGGUGAGUCGCGGUGGGUCCUCGCUUGCAGUUCAGCGACCACGGUGGGUACCGUUUUUGCGAGGAUUGUUUG | -0.516 |

Study 3 — technique: protein-binding microarray; molecule type: double-stranded DNA, one strand shown; medium: in vitro; tested at: 250 nM; setting: 60-bp whole probe; added: salmon DNA 0.4 mg/ml; reference: random background probes; direction: higher = stronger binding; shared flanks, not repeated: GCCTAGCAC … GTCTTGATTCGCTTGACGCTGCTG
Target: Interferon regulatory factor 5, full length, phosphomimetic (IRF5, Homo sapiens, UniProt Q13568-2, residues 1-514, K96S/S451D/S453D/S456D/S462D)
| Sequence | log fluorescence |
| --- | --- |
| TTCTACTTCTGTTTTTGCTTGTGCTAG | 1.52 z-score |
| TTAGGTCTCCTTCTCCTTGAGTGCTAG | -0.353 z-score |
| TCTCTTTTTGCTTTCTTTATGTGCTAG | 2.71 z-score |
| TTAGATATCAGTCTCGAGTAGTGCTAG | 1.12 z-score |
| TTAGCACTGGGGTATCGATTAGTGCTA | 2.05 z-score |
| CCACATTTGATAAATCTTTGTGTGCTA | 0.495 z-score |
| TTAGGTTTCGGGACTCGGTTAGTGCTA | 5.84 z-score |
| TTAGGTTTCGGGTATCGGATAGTGCTA | 9.01 z-score |

Mixed results
| SMILES | target | assay | conditions | scale | endpoint | value |
| --- | --- | --- | --- | --- | --- | --- |
| O=C1NC(=O)C(c2c[nH]c3ccccc23)=C1c1c[nH]c2ccccc12 | Serine/threonine-protein kinase MRCK beta (CDC42BPB, Homo sapiens, UniProt Q9Y5S2) | enzyme activity, inhibitor | 0.5 µM | reference: control | remaining activity | 99% |
